Published values collected from several papers.
Compare with care: the assays were run in different laboratories.
CDC25B: M-phase inducer phosphatase 2 (CDC25B, Homo sapiens, UniProt P30305)
Ectonucleoside triphosphate diphosphohydrolase 1: Ectonucleoside triphosphate diphosphohydrolase 1 (Homo sapiens, UniProt P49961)
Si: Sucrase-isomaltase, intestinal (Si, Rattus norvegicus, UniProt P23739)
KDM1A: Lysine-specific histone demethylase 1A (KDM1A, Homo sapiens, UniProt O60341)
DRD3: D(3) dopamine receptor (DRD3, Homo sapiens, UniProt P35462)
gag-pol reverse transcriptase: Gag-Pol polyprotein, reverse transcriptase (gag-pol, Human immunodeficiency virus type 1 group M subtype B, UniProt P04585)

CSc1nc(N)c2c(F)c(C#N)c(F)c(Cl)c2n1
inhibition (CDC25B; enzyme activity, inhibitor, fluorescence; 20 µg/mL): 89.7%

O=C(O)c1cc(S(=O)(=O)N2CCOCC2)ccc1Cl
inhibition (Ectonucleoside triphosphate diphosphohydrolase 1; enzyme activity, inhibitor, absorbance; 100 µM): 12%

N[C@H]1CCCc2c1[nH]c1ccc(Cl)cc21
inhibition (5-hydroxytryptamine receptor 6 (HTR6, Homo sapiens, UniProt P50406); ligand displacement, radioligand; 10 µM): 31.6%

O=C(O[C@@H]1Cc2c(O)cc(O)cc2O[C@@H]1c1cc(O)c(O)c(O)c1)c1cc(O)c(O)c(O)c1
inhibition (Si; enzyme activity, inhibitor; rat intestinal brush border vesicles; 10 µM): 92.7%

Cn1cc(-c2ccc3ccccc3c2)c2ccc(Cl)nc21
inhibition (Gag-Pol polyprotein, integrase (gag-pol, Human immunodeficiency virus type 1 group M subtype B, UniProt P04585); enzyme activity, inhibitor; 10 µM): 55.8%

COc1cc(-c2nc(SCc3cn(Cc4ccccc4Cl)nn3)nc(Nc3ccc(C)cc3)c2C#N)cc(OC)c1OC
inhibition (KDM1A; enzyme activity, inhibitor, fluorescence; 1 µM): 2.2%

CCn1c2ccccc2c2cc(CNCCCn3ccnn3)ccc21
inhibition (DRD3; cell-free assay, inhibitor; 10 µM): 95.8%

O=C(/C=C/c1ccccc1)NCc1cn([C@H]2O[C@H](CO)[C@@H](O)[C@H](O)[C@H]2O)nn1
inhibition (Lysosomal alpha-glucosidase (GAA, Homo sapiens, UniProt P10253); enzyme activity, inhibitor, fluorescence; 1.43 mM, pH 4, lysate): 56%

CCCCCCCCC=CCCCCCCCC(=O)OCC1OC(n2ccc(N)nc2=O)C(F)(F)C1O (stereo not shown)
inhibition (Cytidine deaminase (CDA, Homo sapiens, UniProt P32320); enzyme activity, inhibitor; 500 µM, with: gemcitabine 500 µM): 47.2%

COc1cc(C(=O)NC2CCC(N3CCN(CC4CCC5(CCCC5)C4)CC3)CC2)c(F)cc1Nc1ncc2c(n1)N(C1CCCC1(F)F)CC(F)(F)C(=O)N2C (stereo not shown)
inhibition (ALK tyrosine kinase receptor (ALK, Homo sapiens, UniProt Q9UM73); cell-free assay, TR-FRET; 10 µM): 0.91%

CCOc1c(C(C)(C)O)sc2cnc(Nc3ccc(N4CCC(N5CC6(COC6)C5)CC4)cc3OC)nc12
inhibition (Activated CDC42 kinase 1 (TNK2, Homo sapiens, UniProt Q07912); enzyme activity, inhibitor; 0.1 µM): 68%

Cc1ccc(Nc2nc(SCc3cn(Cc4ccccc4Cl)nn3)nc(-c3ccc(Cl)cc3)c2C#N)cc1
inhibition (KDM1A; enzyme activity, inhibitor, fluorescence; 1 µM): 39.8%

O=C1NCCC(O)c2ccccc21 (stereo not shown)
inhibition (Protein mono-ADP-ribosyltransferase PARP3 (PARP3, Homo sapiens, UniProt Q9Y6F1); enzyme activity, inhibitor; 10 µM): 69%

COCCOC(=O)Nc1ccc2c(c1)c(Cc1ccc(C(=O)NS(=O)(=O)c3ccc(C(F)(F)F)cc3)cc1OC)cn2C
inhibition (Tumor necrosis factor receptor superfamily member 1A (Homo sapiens, UniProt P19438); NF-κB reporter gene, luciferase reporter; HEK293 cells; 0.5 µM, 24 h, with: TNF 10 ng/mL): 32 to 40%

CC(=O)Nc1cc(COc2c(Cl)cc(CC(N)C(=O)O)cc2Cl)c2oc(-c3ccccc3)nc2c1 (stereo not shown)
inhibition (Sodium-coupled neutral amino acid transporter 3 (SLC38A3, Homo sapiens, UniProt Q99624); glutamine uptake; Xenopus oocytes; 1 and 10 µM, 30 min, with: L-[14C]glutamine 50 µM): no inhibition

O=C(c1cccc(S(=O)(=O)N2CCOCC2)c1)N1CCOCC1
inhibition (Ectonucleoside triphosphate diphosphohydrolase 1; enzyme activity, inhibitor, absorbance; 100 µM): 19%

O=C(Nc1ccc(Oc2ncnc3[nH]cc(-c4ccccc4)c23)c(F)c1)c1c2n(n(-c3cc(F)ccc3F)c1=O)CCCC2
inhibition (Tyrosine-protein kinase receptor UFO (AXL, Homo sapiens, UniProt P30530); enzyme activity, inhibitor, ELISA; 0.1 µM): 75.4%

C#CCSc1nc(Sc2nnnn2-c2ccccc2)c2nnn(Cc3ccccc3Cl)c2n1
inhibition (KDM1A; enzyme activity, inhibitor, fluorescence; 1 µM): 95.8%

COc1ccc(NC(=O)c2cccc(S(=O)(=O)NC3CC3)c2)cc1
inhibition (Ectonucleoside triphosphate diphosphohydrolase 1; enzyme activity, inhibitor, absorbance; 100 µM): 34%

[2H]C([2H])([2H])c1ccnc2c1NC(=O)c1cccnc1N2C1CC1
inhibition (gag-pol reverse transcriptase; enzyme activity, inhibitor, ELISA; 10 µM): > 85%

Nc1ncc(/C=N/NC(=O)Cc2c[nH]c3ccccc23)cn1
inhibition (1-deoxy-D-xylulose-5-phosphate synthase (dxs, Deinococcus radiodurans, UniProt Q9RUB5); enzyme activity, inhibitor; 120 µM): 14%

O=C(Nc1cccc(C(=O)Nc2ccc3[nH]ncc3c2)c1)Nc1cc(C(F)(F)F)ccc1F
inhibition (NT-3 growth factor receptor (NTRK3, Homo sapiens, UniProt Q16288); enzyme activity, inhibitor, FRET; 1 µM): 4.59%

CCCCSc1nc(N)c2c(F)c(C#N)c(F)c(Cl)c2n1
inhibition (CDC25B; enzyme activity, inhibitor, fluorescence; 20 µg/mL): 99.5%

O=C1CC(CO)NC(=O)c2ccccc21 (stereo not shown)
inhibition (Poly [ADP-ribose] polymerase 1 (PARP1, Homo sapiens, UniProt P09874); enzyme activity, inhibitor; 10 µM): > 50%

Cc1nc(CN(C)c2ncnc3c2cnn3CCO)cs1
inhibition (Heat shock protein 90, N-terminal domain (Plasmodium falciparum, UniProt Q8IC05); ligand displacement, FP; 10 µM): 97%

C=CCSc1nc(N)c2c(F)c(C#N)c(F)c(Cl)c2n1
inhibition (CDC25B; enzyme activity, inhibitor, fluorescence; 20 µg/mL): 98.8%

C[C@@H](N)C1CCN(S(=O)(=O)c2cccc3cnccc23)CC1
inhibition (Dual specificity protein kinase CLK1 (CLK1, Homo sapiens, UniProt P49759); cell-free assay, competition with immobilised ligand; 10 µM): > 95%

Cc1cc(C=O)cc(C)c1Oc1cc(Nc2ccc(C#N)cn2)nc2ccncc12
inhibition (gag-pol reverse transcriptase; enzyme activity, inhibitor, ELISA; 1 µM): 83.5%

CCn1c2ccccc2c2cc(CNCCCn3cnnc3)ccc21
inhibition (DRD3; cell-free assay, inhibitor; 10 µM): 63%

C[Si](C)(C)C[C@@H](CN)CC(=O)O
inhibition (Voltage-dependent calcium channel subunit alpha-2/delta-1 (Rattus norvegicus, UniProt P54290); [3H]gabapentin binding; rat cerebral cortex membranes; 75 µM): 78%

CCNC(=O)Nc1ccc(OCCCCOc2ccc(NC(=O)NCC)cc2)cc1
inhibition (Transcription antitermination protein NusB, with NusE (nusB, Bacillus subtilis, UniProt P54520); protein-protein interaction, inhibitor, competitive ELISA; 25 µM, 15 min preincubation, 37 °C, with: 200 nM GST-NusE): 52%

N#Cc1c(F)c(F)c2c(N)nc(SCc3ccc4ccccc4c3)nc2c1F
inhibition (CDC25B; enzyme activity, inhibitor, fluorescence; 20 µg/mL): 99%

CC1=C(/C=C/C(C)=C/C=C/C(C)=C/C=O)C(C)(C)CCC1
inhibition (Cyclic nucleotide-gated channel alpha-1 (CNGA1, Bos taurus, UniProt Q00194); cGMP-activated current, inhibitor, inside-out patch clamp; 300 nM, with: saturating cGMP 2 mM): 50.6%

COCCOCCSc1nc(N)c2c(F)c(F)c(C#N)c(F)c2n1
inhibition (CDC25B; enzyme activity, inhibitor, fluorescence; 20 µg/mL): 63.4%

Oc1cc(O)c2c(c1)O[C@H](c1cc(O)c(O)c(O)c1)[C@H](O)C2
inhibition (Si; enzyme activity, inhibitor; rat intestinal brush border vesicles; 10 µM): 84.6%

COCCSc1nc(N)c2c(F)c(C#N)c(F)c(F)c2n1
inhibition (CDC25B; enzyme activity, inhibitor, fluorescence; 20 µg/mL): 96.6%

C=CC(C)(C)c1[nH]c2ccccc2c1C1=C(O)C(=O)C(c2c[nH]c3c(CC=C(C)C)cccc23)=C(O)C1=O
inhibition (Trypanothione synthetase (Trypanosoma cruzi, UniProt Q9GT49); enzyme activity, inhibitor, absorbance; 25 µM): 27.7%

Repeated from above:
N#Cc1c(F)c(F)c2c(N)nc(SCc3ccc4ccccc4c3)nc2c1F
inhibition (CDC25B; enzyme activity, inhibitor, fluorescence; 20 µg/mL): 99%

CC1=C(/C=C/C(C)=C/C=C/C(C)=C/C=O)C(C)(C)CCC1
inhibition (Cyclic nucleotide-gated channel alpha-1 (CNGA1, Bos taurus, UniProt Q00194); cGMP-activated current, inhibitor, inside-out patch clamp; 300 nM, with: saturating cGMP 2 mM): 50.6%
